# Measurements collected from several papers.
# Every numbered part comes from another study and shows a few of its results, in no order.
# Chain of UniProt Q00536 (whole entry, looked up): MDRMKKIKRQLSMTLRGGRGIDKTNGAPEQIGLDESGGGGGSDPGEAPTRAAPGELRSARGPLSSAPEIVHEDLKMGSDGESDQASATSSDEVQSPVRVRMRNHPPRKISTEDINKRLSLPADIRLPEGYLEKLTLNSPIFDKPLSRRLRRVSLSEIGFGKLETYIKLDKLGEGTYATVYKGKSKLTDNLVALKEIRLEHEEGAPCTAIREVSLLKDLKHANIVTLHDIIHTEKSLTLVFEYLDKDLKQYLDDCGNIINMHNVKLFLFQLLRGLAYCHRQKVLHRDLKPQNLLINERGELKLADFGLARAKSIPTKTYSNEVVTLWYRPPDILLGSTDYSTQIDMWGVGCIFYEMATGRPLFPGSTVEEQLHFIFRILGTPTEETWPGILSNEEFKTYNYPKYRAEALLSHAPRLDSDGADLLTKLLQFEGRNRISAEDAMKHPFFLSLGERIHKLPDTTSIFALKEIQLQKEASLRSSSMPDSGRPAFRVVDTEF
# Chain of UniProt P32298 (whole entry, looked up): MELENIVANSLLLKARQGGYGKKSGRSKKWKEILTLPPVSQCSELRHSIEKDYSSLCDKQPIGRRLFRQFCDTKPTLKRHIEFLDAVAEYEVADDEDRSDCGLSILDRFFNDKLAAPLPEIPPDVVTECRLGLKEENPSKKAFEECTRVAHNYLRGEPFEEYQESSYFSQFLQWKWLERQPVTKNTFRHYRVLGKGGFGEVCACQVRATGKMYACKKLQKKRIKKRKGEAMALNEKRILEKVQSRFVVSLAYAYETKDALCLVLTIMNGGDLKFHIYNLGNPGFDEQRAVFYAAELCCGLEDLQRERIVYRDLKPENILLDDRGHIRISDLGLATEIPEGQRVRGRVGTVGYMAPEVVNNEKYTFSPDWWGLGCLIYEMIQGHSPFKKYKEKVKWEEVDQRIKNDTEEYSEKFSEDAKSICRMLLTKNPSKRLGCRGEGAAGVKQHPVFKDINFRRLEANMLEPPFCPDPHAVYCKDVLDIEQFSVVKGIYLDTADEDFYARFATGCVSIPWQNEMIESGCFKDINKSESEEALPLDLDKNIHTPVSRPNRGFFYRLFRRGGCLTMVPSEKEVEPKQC
# Chain of UniProt Q15418 (whole entry, looked up): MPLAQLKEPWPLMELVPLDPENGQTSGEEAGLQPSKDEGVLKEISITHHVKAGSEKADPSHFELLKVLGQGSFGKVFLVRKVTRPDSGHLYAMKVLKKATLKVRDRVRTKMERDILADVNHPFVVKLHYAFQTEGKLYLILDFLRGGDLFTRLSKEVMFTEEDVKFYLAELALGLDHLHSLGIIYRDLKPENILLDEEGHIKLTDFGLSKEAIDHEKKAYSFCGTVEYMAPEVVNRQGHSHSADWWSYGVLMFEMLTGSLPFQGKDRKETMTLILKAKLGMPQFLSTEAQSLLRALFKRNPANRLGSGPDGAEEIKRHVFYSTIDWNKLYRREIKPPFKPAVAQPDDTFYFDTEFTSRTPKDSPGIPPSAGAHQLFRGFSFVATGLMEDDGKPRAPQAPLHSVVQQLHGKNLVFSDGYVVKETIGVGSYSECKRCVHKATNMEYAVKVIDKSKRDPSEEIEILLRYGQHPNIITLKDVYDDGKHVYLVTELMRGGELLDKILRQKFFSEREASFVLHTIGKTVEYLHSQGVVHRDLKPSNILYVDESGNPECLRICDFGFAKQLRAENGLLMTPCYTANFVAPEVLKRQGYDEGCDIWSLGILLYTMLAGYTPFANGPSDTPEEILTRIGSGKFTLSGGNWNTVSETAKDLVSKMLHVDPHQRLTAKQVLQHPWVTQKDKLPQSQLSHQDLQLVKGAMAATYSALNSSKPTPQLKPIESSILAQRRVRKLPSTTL
# Chain of UniProt P00519 (whole entry, unmodified, looked up): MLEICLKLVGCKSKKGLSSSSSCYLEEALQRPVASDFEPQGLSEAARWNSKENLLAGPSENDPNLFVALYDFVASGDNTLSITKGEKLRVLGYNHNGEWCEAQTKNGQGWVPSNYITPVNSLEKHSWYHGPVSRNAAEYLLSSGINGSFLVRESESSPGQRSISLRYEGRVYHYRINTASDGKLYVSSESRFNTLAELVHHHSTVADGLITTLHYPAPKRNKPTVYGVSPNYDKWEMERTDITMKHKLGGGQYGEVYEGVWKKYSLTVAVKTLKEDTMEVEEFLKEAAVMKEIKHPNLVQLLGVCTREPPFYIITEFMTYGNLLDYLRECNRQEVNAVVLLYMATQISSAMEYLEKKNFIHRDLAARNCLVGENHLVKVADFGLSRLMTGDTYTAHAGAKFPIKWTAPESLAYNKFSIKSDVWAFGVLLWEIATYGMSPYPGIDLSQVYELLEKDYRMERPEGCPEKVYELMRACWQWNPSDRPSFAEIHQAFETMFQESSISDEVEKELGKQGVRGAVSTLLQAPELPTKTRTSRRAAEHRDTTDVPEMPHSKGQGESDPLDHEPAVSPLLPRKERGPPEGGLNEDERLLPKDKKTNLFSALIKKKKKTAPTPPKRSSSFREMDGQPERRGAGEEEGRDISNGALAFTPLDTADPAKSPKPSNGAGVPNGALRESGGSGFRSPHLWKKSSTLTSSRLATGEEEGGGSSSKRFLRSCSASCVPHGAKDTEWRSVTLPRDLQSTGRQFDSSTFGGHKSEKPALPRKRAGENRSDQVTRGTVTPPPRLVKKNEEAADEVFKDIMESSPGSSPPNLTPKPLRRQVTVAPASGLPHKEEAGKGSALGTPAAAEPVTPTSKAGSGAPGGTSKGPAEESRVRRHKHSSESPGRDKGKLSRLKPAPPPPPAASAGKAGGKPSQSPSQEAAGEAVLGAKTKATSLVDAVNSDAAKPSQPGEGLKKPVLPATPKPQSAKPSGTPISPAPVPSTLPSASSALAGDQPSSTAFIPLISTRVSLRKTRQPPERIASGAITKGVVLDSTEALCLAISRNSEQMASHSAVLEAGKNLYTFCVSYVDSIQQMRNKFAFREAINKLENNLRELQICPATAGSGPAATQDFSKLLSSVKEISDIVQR
# Chain of UniProt Q9H093 (whole entry, looked up): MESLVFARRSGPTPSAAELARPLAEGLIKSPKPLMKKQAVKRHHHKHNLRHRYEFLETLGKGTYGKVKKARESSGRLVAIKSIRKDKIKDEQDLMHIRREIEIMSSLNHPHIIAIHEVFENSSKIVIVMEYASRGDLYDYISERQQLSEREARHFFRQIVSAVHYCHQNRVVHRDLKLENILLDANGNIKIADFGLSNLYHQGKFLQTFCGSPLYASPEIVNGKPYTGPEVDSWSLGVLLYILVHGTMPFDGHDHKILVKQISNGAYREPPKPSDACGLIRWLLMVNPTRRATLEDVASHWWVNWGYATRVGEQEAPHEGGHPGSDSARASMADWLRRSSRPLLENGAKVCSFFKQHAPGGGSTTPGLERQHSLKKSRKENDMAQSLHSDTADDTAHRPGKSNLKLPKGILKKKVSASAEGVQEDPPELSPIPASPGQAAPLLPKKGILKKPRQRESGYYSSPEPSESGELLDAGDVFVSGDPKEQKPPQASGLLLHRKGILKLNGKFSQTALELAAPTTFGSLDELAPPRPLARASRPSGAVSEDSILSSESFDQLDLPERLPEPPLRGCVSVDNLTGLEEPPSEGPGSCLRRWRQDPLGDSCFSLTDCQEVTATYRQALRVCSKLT
# Chain of UniProt Q16539 (whole entry, looked up): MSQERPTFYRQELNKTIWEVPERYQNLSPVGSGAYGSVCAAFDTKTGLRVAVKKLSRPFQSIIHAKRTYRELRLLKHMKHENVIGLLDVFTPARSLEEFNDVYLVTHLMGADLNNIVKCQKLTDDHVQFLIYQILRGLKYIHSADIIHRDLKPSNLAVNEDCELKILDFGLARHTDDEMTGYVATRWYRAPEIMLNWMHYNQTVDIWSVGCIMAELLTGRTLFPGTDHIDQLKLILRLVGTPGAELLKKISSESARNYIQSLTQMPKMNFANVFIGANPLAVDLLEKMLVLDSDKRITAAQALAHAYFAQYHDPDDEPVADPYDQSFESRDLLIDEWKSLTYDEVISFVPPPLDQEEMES
# Chain of UniProt O75914 (whole entry, looked up): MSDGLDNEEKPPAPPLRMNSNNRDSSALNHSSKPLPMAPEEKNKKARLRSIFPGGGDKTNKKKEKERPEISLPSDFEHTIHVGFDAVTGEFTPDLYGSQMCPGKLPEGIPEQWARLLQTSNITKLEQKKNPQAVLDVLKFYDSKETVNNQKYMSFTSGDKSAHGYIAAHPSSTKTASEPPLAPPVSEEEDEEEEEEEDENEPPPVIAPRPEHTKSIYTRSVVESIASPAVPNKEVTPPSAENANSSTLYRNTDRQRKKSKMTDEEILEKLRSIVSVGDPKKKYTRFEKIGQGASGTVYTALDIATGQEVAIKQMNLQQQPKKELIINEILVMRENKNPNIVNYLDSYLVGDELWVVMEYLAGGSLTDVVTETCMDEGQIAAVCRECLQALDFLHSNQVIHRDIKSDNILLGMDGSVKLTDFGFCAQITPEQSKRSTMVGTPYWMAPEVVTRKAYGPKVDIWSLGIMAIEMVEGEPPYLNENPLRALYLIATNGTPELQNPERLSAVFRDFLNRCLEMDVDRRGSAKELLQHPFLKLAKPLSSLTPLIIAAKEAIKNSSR

# Sample 1 — observed: cell-free assay; method: competition with immobilised ligand; tested at: 1 µM
# SMILES: CC(=O)C1=C(C)N(c2cccc(C(F)(F)F)c2)C(=O)N[C@@H]1c1ccc(C#N)nc1
target,remaining binding
"HUNK (Homo sapiens, UniProt P57058)",80.1%
"PIK3CA (Homo sapiens, UniProt P42336)",100%
"PRKAA2 (Homo sapiens, UniProt P54646)",80.4%
"PRKD1 (Homo sapiens, UniProt Q15139)",95.7%
"RIOK2 (Homo sapiens, UniProt Q9BVS4)",98%
"Tyrosine-protein kinase JAK2, JH1 (JAK2, Homo sapiens, UniProt O60674)",87.1%
"OXSR1 (Homo sapiens, UniProt O95747)",100%
"TAOK2 (Homo sapiens, UniProt Q9UL54)",94.4%
"RPS6KB1 (Homo sapiens, UniProt P23443)",93.8%
"MAPK15 (Homo sapiens, UniProt Q8TD08)",100%
"PIK3CG (Homo sapiens, UniProt P48736)",100%
"PRKCH (Homo sapiens, UniProt P24723)",91.3%
"GRK4 (Homo sapiens, UniProt P32298)",100%
"Tyrosine-protein kinase ABL1, phosphorylated (ABL1, Homo sapiens, UniProt P00519, F317L)",97.1%
"PHKG2 (Homo sapiens, UniProt P15735)",80.8%
"MST1R (Homo sapiens, UniProt Q04912)",81.1%
"Ribosomal protein S6 kinase alpha-1, N-terminal kinase domain (RPS6KA1, Homo sapiens, UniProt Q15418)",100%
"PAK6 (Homo sapiens, UniProt Q9NQU5)",92.7%
"NUAK2 (Homo sapiens, UniProt Q9H093)",100%
"CDK16 (Homo sapiens, UniProt Q00536)",100%
"MAPK14 (Homo sapiens, UniProt Q16539)",100%
"MAPK9 (Homo sapiens, UniProt P45984)",100%
"PAK3 (Homo sapiens, UniProt O75914)",86.3%
"FGFR3 (Homo sapiens, UniProt P22607, G697C)",100%

# Sample 2 — organism: Sarcocystis neurona; observed: parasite growth; tested at: 10 µM; time: 96 h; setting: first screen
SMILES,inhibition [%]
Cc1cccc(Nc2ccccc2C(=O)O)c1C,-3.9
CN(C)CCOC(C)(c1ccccc1)c1ccccn1 (stereo not drawn),-8
CN(C)[C@@H]1C(O)=C(C(N)=O)C(=O)[C@@]2(O)C(O)=C3C(=O)c4c(O)cccc4[C@@](C)(O)[C@H]3C[C@@H]12,29.4
COc1ccc(Cl)cc1C(=O)NCCc1ccc(S(=O)(=O)NC(=O)NC2CCCCC2)cc1,-19.1
CCN1CCC[C@H]1CNC(=O)c1cc(S(N)(=O)=O)ccc1OC,-16.2
CN(C)[C@@H]1C(O)=C(C(=O)NCN2CCCC2)C(=O)[C@@]2(O)C(O)=C3C(=O)c4c(O)cccc4[C@@](C)(O)[C@H]3C[C@@H]12,-6.7
NC12CC3CC(CC(C3)C1)C2,-15
CNC(=C[N+](=O)[O-])NCCSCc1ccc(CN(C)C)o1,-23.8

# Sample 3
# SMILES: COc1cc(C(=O)N2CCC(N3CCN(C)CC3)CC2)ccc1Nc1ncc2c(n1)N(C)c1ccccc1C(=O)N2C
target,test,system,conditions,inhibition [%]
MAP2K4 (mouse),"probe labelling, KiNativ, measured: DIkPSNILLDR peptide, LYS2 site",brain tissue lysate (mouse),"0.1 µM, with: ADP acyl-phosphate probe",-20
"MAP/microtubule affinity-regulating kinase 4 (Mus musculus, UniProt Q8CIP4)",KiNativ profiling,mouse brain lysate,"0.1 µM, LYS1 site, with: ADP acyl phosphate probe",1.1
ILK (mouse),"probe labelling, KiNativ, measured: WQGNDIVVkVLK peptide, LYS1 site",brain tissue lysate (mouse),"1 µM, with: ADP acyl-phosphate probe",11.1
MARK3 and MARK4 (mouse),"probe labelling, KiNativ, measured: EVAIkIIDK peptide, LYS1 site",brain tissue lysate (mouse),"0.1 µM, with: ATP acyl-phosphate probe",1.2
ULK3 human,KiNativ profiling,human PBMC,"1 µM, LYS2 site, with: ATP acyl phosphate probe",9.2
ATR (mouse),"probe labelling, KiNativ, measured: FYIMMCkPK peptide, ATP site",brain tissue lysate (mouse),"1 µM, with: ATP acyl-phosphate probe",3.6
PAK2 (human),"probe labelling, KiNativ ADP probe",human PBMC lysate,"concentration not given, LYS1 labelled site",7.7

# Sample 4 — host: mouse; matrix: microsomes or S9; tested at: 2 µM; time: 0.5 h
Compound,remaining compound [%]
CCOC1CC(N(C)C(=O)COCc2ocnc2C(=O)O)C1(C)C (stereo not drawn),> 100
Cc1cc(C)c2c(n1)oc1c(N3CCN(C(=O)c4ccco4)CC3)ncnc12,3.96
O=C(Nc1ccc2nncn2c1)c1cc(Cl)c2c(c1)OCO2,10.3
CCOC(=O)c1cc(CC)sc1NC(=O)COC,0.432
O=C(NC1CCOC2(CCS(=O)(=O)C2)C1)c1cccc2cc[nH]c12 (stereo not drawn),72.3
CC(O)CN(Cc1ccc(C(C)(C)C)s1)C1CCS(=O)(=O)CC1 (stereo not drawn),1.38
CCN(Cc1nc(-c2cccs2)no1)C(=O)C(C)Oc1cc(C)c(Cl)c(C)c1 (stereo not drawn),< 1
O=C(c1ccccc1C1CCNC1)N1CCC2(C=Cc3ccccc32)CC1 (stereo not drawn),43.5

# Sample 5 — mode: antagonist
# Target: Beta-1 adrenergic receptor (ADRB1, Homo sapiens, UniProt P08588)
# Chain of UniProt P08588 (whole entry, looked up): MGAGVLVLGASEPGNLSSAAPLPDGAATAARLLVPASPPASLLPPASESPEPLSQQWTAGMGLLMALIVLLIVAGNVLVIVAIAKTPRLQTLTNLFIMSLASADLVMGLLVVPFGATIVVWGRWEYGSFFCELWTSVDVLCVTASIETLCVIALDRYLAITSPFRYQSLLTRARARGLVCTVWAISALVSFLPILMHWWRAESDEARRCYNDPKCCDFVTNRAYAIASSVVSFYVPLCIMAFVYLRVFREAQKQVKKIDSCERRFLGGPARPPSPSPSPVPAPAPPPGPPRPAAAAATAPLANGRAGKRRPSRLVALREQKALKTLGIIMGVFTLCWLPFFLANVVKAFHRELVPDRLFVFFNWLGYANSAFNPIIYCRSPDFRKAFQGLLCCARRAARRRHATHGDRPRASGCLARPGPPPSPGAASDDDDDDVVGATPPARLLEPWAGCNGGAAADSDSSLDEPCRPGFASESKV
Structure (SMILES),IC50 [µM]
CCOc1ccccc1N1CCN(C(=O)C2CNCCO2)CC1 (stereo not drawn),≥ 100
COCCN1CCNc2nc(CNCC(C)(C)CO)n(Cc3ccccc3)c2C1=O,≥ 100
CN1Cc2sccc2C(c2ccc(O)c(O)c2)C1 (stereo not drawn),≥ 100
O=C(NCCc1ccccn1)c1ccnc(-c2nnc3ccc(N4CCOCC4)nn23)c1,≥ 100

# A few entries again (sample 2):
SMILES,inhibition [%]
Cc1cccc(Nc2ccccc2C(=O)O)c1C,-3.9
CN(C)CCOC(C)(c1ccccc1)c1ccccn1 (stereo not drawn),-8
CN(C)[C@@H]1C(O)=C(C(N)=O)C(=O)[C@@]2(O)C(O)=C3C(=O)c4c(O)cccc4[C@@](C)(O)[C@H]3C[C@@H]12,29.4
COc1ccc(Cl)cc1C(=O)NCCc1ccc(S(=O)(=O)NC(=O)NC2CCCCC2)cc1,-19.1
CCN1CCC[C@H]1CNC(=O)c1cc(S(N)(=O)=O)ccc1OC,-16.2
CN(C)[C@@H]1C(O)=C(C(=O)NCN2CCCC2)C(=O)[C@@]2(O)C(O)=C3C(=O)c4c(O)cccc4[C@@](C)(O)[C@H]3C[C@@H]12,-6.7
NC12CC3CC(CC(C3)C1)C2,-15
CNC(=C[N+](=O)[O-])NCCSCc1ccc(CN(C)C)o1,-23.8
